# Results collected from several papers.
# Numbered parts are unrelated; each lists some results of a single study. Changes are numbered by the printed parent chain.

# Series 1
# Target: JUN, bZIP domain (human)
# Technique: DHFR protein complementation
# Sample: yeast
# Setting: single substitutions, most at no-binding floor
# Reference: wild-type JUN-FOS pair
# Reading: higher = stronger binding
# Parent: JUN, bZIP domain (human); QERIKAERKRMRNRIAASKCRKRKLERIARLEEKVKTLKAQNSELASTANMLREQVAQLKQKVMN; partner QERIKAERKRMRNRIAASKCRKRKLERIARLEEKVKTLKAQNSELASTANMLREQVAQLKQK
Substitution,binding fitness [natural log]
A40G,-0.63
R53N,-0.796
S47N,-0.152
E33C,-0.576
E44K,-0.371
E44Y,-0.488
T48G,-1.08
A29Y,-0.463
N42C,-1.19
M51Q,-0.148
E54A,-0.367
E32K,-0.447
K39V,-0.163
L45W,-1.07

# Series 2
# Target: RING finger protein unkempt homolog, zinc fingers 1-6, GST-SBP tag (UNK, Homo sapiens, UniProt Q9C0B0, residues 30-357)
# Technique: RNA Bind-n-Seq
# Molecule type: RNA
# Sample: in vitro
# Concentration: not given
# Setting: RNA with constant flanks, human and mouse sites, ends assumed
# Reference: input RNA pool
# Reading: higher = stronger binding
# All sequences stand within: GGGAGUUCUACAGUCCGACGAUC … CAACAGAGGAUUGAGCAUCA
# Target sequence (chain): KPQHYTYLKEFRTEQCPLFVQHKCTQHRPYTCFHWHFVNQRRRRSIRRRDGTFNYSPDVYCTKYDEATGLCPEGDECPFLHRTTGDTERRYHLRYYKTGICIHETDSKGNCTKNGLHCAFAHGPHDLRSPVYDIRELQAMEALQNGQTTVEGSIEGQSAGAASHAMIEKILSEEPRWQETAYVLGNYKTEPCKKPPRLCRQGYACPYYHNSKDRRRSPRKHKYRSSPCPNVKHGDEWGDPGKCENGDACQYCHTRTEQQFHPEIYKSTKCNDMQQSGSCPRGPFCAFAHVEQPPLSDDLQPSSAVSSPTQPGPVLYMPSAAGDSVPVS
Sequence,bound/input enrichment [ratio]
AUUUUGUGAGGUACCACUACAACGGGACGUUCCUGGACGGAACUCUGUUUGAUUCGAGUCACAAUCGCAUGAAAACAUAUGACACGUAUGUGGGAAUUGGCUGGCUGAUUCCUGGAAUGG,0.17
GUCACCCUCAUGAUGGAUGCCACCAACAUGCCUGCCGUCAAAGCUAUCAUAUACCAGUACAUAGAAGAGAUUUAUCACCGGAUCCCCAACUCAGACCCAUCAUCAAGCAAAACCAAGCAG,0.944
UGUUUAAUAAAUUACAUCCAACUUGUUCCUUCCUUCUUAAAUCAUAUUUAUAUAUGCAUCUCUUUCAAAAGCUUCAGCGCCUGCUCCUGGUCAUCACUAACCAGAUUUACUUGGAGUACA,0.449
CCAGUCAGUGGGAGGUAGAAAGGGUGGCAUCUGUAGCCCUCUUCAUACACAUAAGUGGCAUUUAGGUGAAUGUCCCAGCUAAUCACUAGCAUGUCUAGGUAUUGGCUGGGUAGUGGGUAU,0.924
UACCCAGAAGGAGAGGGUGAGACCUAUUACUAUGAGUAUCCAUAUUAUGAAGACCCUGAAGACCCGGGAAAGGAGCCUGCCCCUACUCAGAAGCCAGUGGAAGCUGCCAGAGAAACCACA,0.256
GCAGCCCUGUCUGUUCGAAAUCUCUCUCCUUAUGUUUCCAACGAACUUUUGGAAGAGGCCUUUAGCCAGUUUGGUCCUAUUGAAAGGGCUGUUGUAAUUGUGGAUGAUCGCGGAAGAUCU,0.207
CCUUUCUUAGCAGUUAACCGAGAGCGGCGCCUCCCUCCGCGAGGAAACGGCAGCGUGUGCUGUAGCGUGGGUAUGGCCGACUACUCCACAGUGCCUCCGCCGUCGUCUGGCUCGGCUGGC,0.3
CCUGUUCGAGGCAGCUAUCUUACAGACUGCAUGAAUGUAAGAGUAGGAAUGGGGUGGGUGUUAGGAUCAUUCGGGAUCUUCGACACUUGAAACAAAAUUACACCUGGGAGCUGCAGCCAG,0.373
GAUAAGUGUGUGGAGAAGCCAGGAAGUCGGCUAGACUCCCGCACUGAAAACUGCCUCUCUAGCUGUGUGGAUCGCUUCAUUGACACUACUCUUGCCAUCACCGGUCGGUUUGCCCAGAUC,0.152
GCAUCUCCCUGCUCCCCUCAACCCCCUCCCACCCCAUCCACGCCCCCUACCUUUCCCAAUUUUAGUUUCAUGCAAUAAAAAGGCCAAACUUUUUAUUCCAUAAAACAAGAAGGACAAAAC,1.32
GUGAGUCCCCUACUAAUGAGGCCCUUCCCAAAGCACUGCACAGAGUACAUGAGGCCCUGGGCUGACAGCUGGCGGGAAAGACCGGUUCUGACUCAGGUGAAGUCACAGGAGUUACUCACA,0.0518

# Series 3
# Target: Sal-like protein 4, full length isoform B (SALL4, Homo sapiens, UniProt Q9UJQ4-2, residues 1-616)
# Technique: universal PBM
# Molecule type: double-stranded DNA, one strand shown
# Sample: in vitro
# Concentration: not given
# Setting: 8-mer, flanks averaged, mean of replicates
# Reading: higher = stronger binding
Sequence,E-score
AGCATGTC,-0.0324
CGCGAAAG,-0.205
ATGGGCCA,-0.187
ACATCGTA,0.0316
ACAGGCCT,-0.0948
ATCATGTC,0.0626
ATTAATGA,0.341
GTTTAGCA,0.0302
ACTATGGA,0.111
CCTCTATC,-0.0363
ATGGAATA,0.226
AACATCAA,0.247
CCCGAGTC,-0.187
CACAGTCA,0.0442
GACCGAGA,-0.0694
ACTCGGAG,-0.108
AGAATAGA,0.152
CATCGCAG,-0.137
AGTCGTGG,-0.0962
GCTTCAGA,-0.0479
CTTTTTCC,-0.0183
TACGCAAA,0.0827
GTATTAGA,0.24
ATACAGTC,0.169
ATCCTCAT,0.021

# Series 4
# Target: CCND1, cyclin fold, Cln2 fusion (human)
# Technique: yeast growth competition, sequencing
# Sample: yeast
# Setting: weak parent motif
# Reference: not given
# Reading: higher = stronger binding
# Parent: PPP1R3F docking peptide (human); VAPRRVLFADEAL; partner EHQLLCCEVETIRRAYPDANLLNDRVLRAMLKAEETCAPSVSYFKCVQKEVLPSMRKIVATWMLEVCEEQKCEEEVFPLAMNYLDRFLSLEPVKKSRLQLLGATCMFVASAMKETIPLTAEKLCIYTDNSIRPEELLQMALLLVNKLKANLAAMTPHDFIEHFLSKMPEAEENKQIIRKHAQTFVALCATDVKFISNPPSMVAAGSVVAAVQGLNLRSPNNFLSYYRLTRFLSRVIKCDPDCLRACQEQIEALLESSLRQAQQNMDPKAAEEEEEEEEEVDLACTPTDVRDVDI
Substitution,normalised enrichment score
VAPRKVLLADEAL [R5K F8L],0.0961
AAPRRVLFADEAL [V1A],0.524
VAPRAVAFADEAL [R5A L7A],-0.0791
VAPRRVLFADAAL [E11A],0.318
VAPRRVLLADEAL [F8L],0.177
VAPRRVLAADEAL [F8A],-0.0998
VAPRAVLFADEAL [R5A],0.67
VAPRRVLFADEAA [L13A],0.366

# Series 5
# Target: RNA binding protein fox-1 homolog 2, RRM domain, GST-SBP tag (RBFOX2, Homo sapiens, UniProt O43251-10, residues 100-194)
# Technique: RNA Bind-n-Seq
# Molecule type: RNA
# Sample: in vitro
# Concentration: 365 nM
# Setting: natural RNA segment, single round, ends assumed
# Reference: no-protein control
# Reading: higher = stronger binding
# All sequences stand within: GGGAGUUCUACAGUCCGACGAUC … UGGAAUUCUCGGGUGCCAA
# Residues (chain): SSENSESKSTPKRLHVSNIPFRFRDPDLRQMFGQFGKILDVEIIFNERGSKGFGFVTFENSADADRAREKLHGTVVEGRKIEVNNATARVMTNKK
Sequence,RBNS enrichment (R)
GAAGGCGCUUGCUGUGGCCGCAGACCGUUCUCCAGGACUCUUUUUUUACCUUGAGCACUUGCCUCCUCAGACUUUUAGACCAGUGGUUUACUGUGCCCUUUCUUCCCAUC,1.02
UCCUCAAGAUCUGGAAUAAAGCCAGGAGGAGGUGGAUGGAUGCCAUGGCGACUGGAAGACCAUUCCAACCUUGAAUCGUUACAGCGAUAGCAUAUCCUAUCCAACCAUAC,0.299
AAUGUGAAUAGCAAAUUCUGGUAUAUCGUGACUAACGCUUAAGAAUGCCUGUCUUUGAGAGGAAGGUGUUAUAAUAUUAAUGAACAGUGCCAAAUACACUGUGCAUAUCU,0.41
AGAACAUCUCUAUUCUGCAAGACCCCUCUGCCAUGCCAGGGCACGCCCAUUCCAGCUGGAGUCGUGGGGCUGGGCACAGGGGAAUUUUUCCAGAGCUGAGCCUGACGUCU,0.542
UGAGAGGCCACGCAGCUCCCGACCCUCCGGCCUCCUCUCGCACAUGGAAGGUAUCAGCACUUUGAGAAACAGAGGUGGGGGAACCGGGGGCCCCCCACGCCGAGGUUCCU,0.264
AGCACUUGAGUUGUACAACAGAACACUUGUACAAAAUAGAUUUUAAGGCUAACUUCUUUUCACUGUUGUGACCCUUUGCAAAAUGUAUGUUACAAUAGAUAGUGUCAUGU,1.71
UGAACCGUGGUCAGUCUGUGAGCAGCGCCAGCUGCCUGCAGCCAGGGCCUUGAGCACUGGGGAGCUCUCAAGGUAUACUCUUAGAGUAACUAUAUACCUGUAACUGGACC,0.179
UUUGGGCAGCUGCUCAUCAUUGAGGAAGUGGCAGGACUUGGAGGAAGUUAUGUGUGAAUGUUGUCAAGUCCUGAAGUCCUAUGAUGCACUGUGGCCCUAGAAAACGAAGA,9.42
ACACAGUUCACAAAACAGUACAAGGCAGUAUGACGAGAACUCAUCUUUGCUAACCUCAGCAGUUACUUUGUUUCUUUUGUUUAGAAAAGUGAUUGCAAUCCGUGUAUUUU,0.388
UGGUUGUAUCUAGAUCUUUGCUCUGUGUUUCAGUUGUGCCUUACCCUCUGUAAGAUACUGAUUCUUCCUGGGGCCAGUAUUACCUUGUAUGCAAAUAUUACAUAUGAUGG,0.18
UGCCUCGUCCCACUAUGCACAGAUUGAAACUUCACCUACAAACCUGUUAGUGUGAUCUGUGGAGAAUGUACAGAACUUAACUACAUCAAUAAACACUUUAACGUCCCCUG,0.886
GUGCAGUUCUUGGGCCCAGCCUGGCCUUCGCCAUGAGUUUGGGGAGCGAGACCCCACCUGAGACAGGCAGUAGGAGCCUGUGCUGACCUUGGGGAAUCUGAGCUUUUCCA,0.254

# Further values, each from its own experiment
Substance,target,assay,system,setting,scale,quantity,result
"PhoQ, residues 284 288 289 292 302 303 ALSMDL","PhoP, residues 12 14 15 18 19 NNFVT (Escherichia coli, UniProt P23836)","Sort-seq, measured: YFP reporter",E. coli,"PhoQ-PhoP variant library, with: 10 µM Mg2+","reference: high Mg2+ state, higher = stronger signaling",fold induction,9.56

# A few entries again (series 2):
Sequence,bound/input enrichment [ratio]
GUGAGUCCCCUACUAAUGAGGCCCUUCCCAAAGCACUGCACAGAGUACAUGAGGCCCUGGGCUGACAGCUGGCGGGAAAGACCGGUUCUGACUCAGGUGAAGUCACAGGAGUUACUCACA,0.0518
GCAGCCCUGUCUGUUCGAAAUCUCUCUCCUUAUGUUUCCAACGAACUUUUGGAAGAGGCCUUUAGCCAGUUUGGUCCUAUUGAAAGGGCUGUUGUAAUUGUGGAUGAUCGCGGAAGAUCU,0.207
GUCACCCUCAUGAUGGAUGCCACCAACAUGCCUGCCGUCAAAGCUAUCAUAUACCAGUACAUAGAAGAGAUUUAUCACCGGAUCCCCAACUCAGACCCAUCAUCAAGCAAAACCAAGCAG,0.944
AUUUUGUGAGGUACCACUACAACGGGACGUUCCUGGACGGAACUCUGUUUGAUUCGAGUCACAAUCGCAUGAAAACAUAUGACACGUAUGUGGGAAUUGGCUGGCUGAUUCCUGGAAUGG,0.17
